Measured values from different studies.
Every numbered part comes from another study and shows a few of its results, in no order.
Chain of UniProt Q8NEB9 (whole entry, looked up): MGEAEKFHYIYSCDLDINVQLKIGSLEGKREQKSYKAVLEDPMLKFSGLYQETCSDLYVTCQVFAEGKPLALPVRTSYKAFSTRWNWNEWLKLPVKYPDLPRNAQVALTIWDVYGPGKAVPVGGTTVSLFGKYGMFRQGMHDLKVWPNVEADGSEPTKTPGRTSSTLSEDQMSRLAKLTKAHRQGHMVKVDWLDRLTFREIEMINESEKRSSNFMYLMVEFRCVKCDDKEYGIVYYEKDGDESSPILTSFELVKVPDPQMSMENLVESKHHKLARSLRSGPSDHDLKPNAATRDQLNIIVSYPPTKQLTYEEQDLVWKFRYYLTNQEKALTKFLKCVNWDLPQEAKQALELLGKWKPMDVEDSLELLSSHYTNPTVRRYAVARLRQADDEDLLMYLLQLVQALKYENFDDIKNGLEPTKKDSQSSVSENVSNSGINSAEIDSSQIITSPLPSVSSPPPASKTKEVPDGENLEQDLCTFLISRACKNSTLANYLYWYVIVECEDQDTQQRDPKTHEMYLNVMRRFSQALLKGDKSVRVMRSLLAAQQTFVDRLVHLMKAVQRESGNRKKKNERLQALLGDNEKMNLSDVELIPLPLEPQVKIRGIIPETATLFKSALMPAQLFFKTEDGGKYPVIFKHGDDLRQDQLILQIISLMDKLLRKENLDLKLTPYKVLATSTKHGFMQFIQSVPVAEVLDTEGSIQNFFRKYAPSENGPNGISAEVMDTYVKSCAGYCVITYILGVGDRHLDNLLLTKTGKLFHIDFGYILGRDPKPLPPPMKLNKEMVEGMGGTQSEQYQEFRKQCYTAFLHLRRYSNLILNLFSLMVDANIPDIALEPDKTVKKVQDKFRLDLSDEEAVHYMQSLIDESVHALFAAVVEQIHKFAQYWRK

Block 1 — technique: protein-binding microarray; form: double-stranded DNA, one strand shown; sample: in vitro; concentration: 940 nM top; notes: 60-bp whole probe; with: salmon DNA 0.4 mg/ml; reference: random background probes; reading: higher = stronger binding; measurement: fitted relative affinity; constant ends, left off below: GCCTAGCAC … GTCTTGATTCGCTTGACGCTGCTG
Target: Interferon regulatory factor 5, full length, phosphomimetic (IRF5, Homo sapiens, UniProt Q13568-2, residues 1-514, S451D/S453D/S456D/S462D)
GACGGTTTCGATTATCGGGACGTGCTA: 12 z-score
GACGGTTTCGGTATCGGGCCGTGCTAG: 13.3 z-score
GACGGTCTACTTCTCCTGACGTGCTAG: 0.331 z-score
GACGGACTTGGGTTTCGGGACGTGCTA: 2.19 z-score
GTCATTTTCTCTTATTCTAAGTGCTAG: 2.61 z-score
GACGATTTCGGGTTTCGGGACGTGCTA: 3.24 z-score
GACGATATCAGACTGGGGACGTGCTAG: -0.184 z-score
AACGGTTCCCTTTTCCTGACGTGCTAG: 0.71 z-score

Block 2 — technique: RNA Bind-n-Seq; form: RNA; sample: in vitro; concentration: 20 nM; notes: 6-mer, flanks averaged, single round; with: 150 mM LiCl; reference: input library; reading: higher = stronger binding; measurement: 6-mer enrichment (R)
Target: TAR DNA-binding protein 43, full length, His tag (TARDBP, Homo sapiens, UniProt Q13148, residues 1-414)
AUGCUC: 0.861
GAACGU: 0.902
AAGAGU: 1
AUACUU: 0.891
UUCAAG: 0.852
CCCUUC: 1.08
GGGAGG: 1.4
AGGUCC: 0.885

Single results of other studies
CCC[C@H]1NC(=O)CSC[C@@H](C(=O)OCC)N(C)C(=O)[C@H](CC(C)C)NC(=O)[C@@H](C)N(C)C(=O)[C@@H](CC(C)C)NC(=O)[C@H](C)N(C)C(=O)[C@@H]2CCCN2C(=O)[C@@H](CC(C)C)NC(=O)CN(CCC)C1=O
logD (hydrocarbon/water): 1.05

CN(C)C(=O)Cn1cc(-c2nc([C@@](C)(c3ccc(-c4cnc(N)nc4)cc3)C3CC3)no2)cn1
remaining binding (Phosphatidylinositol 3-kinase catalytic subunit type 3 (PIK3C3, Homo sapiens, UniProt Q8NEB9); cell-free assay, competition with immobilised ligand; 1 µM): 89%

CCOC(=O)[C@@H]1CSCC(=O)N[C@H](CC)C(=O)N(C)[C@@H](C)C(=O)N[C@@H](CC(C)C)C(=O)N2CCC[C@@H]2C(=O)N(CC)CC(=O)N[C@@H](CC(C)C)C(=O)N(C)[C@H](C)C(=O)N[C@@H](CC(C)C)C(=O)N1C
logD (hydrocarbon/water): 0.481
